Measured values pooled from the literature.
Compare with care: the assays were run in different laboratories.

SMILES	organism	test	system	conditions	MIC
C=CCO/N=C(\C(=O)N[C@@H]1C(=O)N(OS(=O)(=O)O)C1(C)C)c1csc(N)n1	Citrobacter freundii	agar dilution	ATCC 43864, susceptible	–	0.5 µg/mL
CC(C)OC(=O)[C@]12CS[C@H](c3ccccc3)N1C(=O)/C(=C(O)/C=C/c1ccccc1)C2=O	Streptomyces	bacterial growth, broth dilution	Mueller-Hinton broth	24 h, 35 °C	7.81 µg/mL
Cc1c(CN(C)C(=O)/C=C/c2cnc3c(c2)CC(N)C(=O)N3)oc2ccccc12 (stereo not drawn)	Klebsiella pneumoniae	broth microdilution	AR-0034	–	8 µg/mL
COC(=O)C12CSC(c3ccccc3)N1C(=O)C(=C(O)NC1CCCCC1)C2=O (stereo not drawn)	Streptomyces	bacterial growth, broth dilution	Mueller-Hinton broth	24 h, 35 °C	62.5 µg/mL
CC1(C)[C@H](NC(=O)/C(=N\OCC(=O)N2CCC[C@@H]2C(=O)O)c2nsc(N)n2)C(=O)N1OS(=O)(=O)O	Citrobacter freundii	agar dilution	ATCC 43864, susceptible	–	0.5 µg/mL
CC/C(O)=C1/C(=O)N2[C@@H](c3ccccc3)SC[C@]2(C(=O)OCc2ccc(Br)cc2)C1=O	Streptomyces	bacterial growth, broth dilution	Mueller-Hinton broth	24 h, 35 °C	15.6 µg/mL
N=C(N)NCCC[C@@H]1NC(=O)[C@H](CCCNC(=N)N)NC(=O)[C@@H](CCCNC(=N)N)NC(=O)[C@@H](CCCNC(=N)N)NC(=O)[C@@H](C(c2ccccc2)c2ccccc2)NC(=O)[C@@H](Cc2c[nH]c3ccccc23)NC(=O)[C@@H](C(c2ccccc2)c2ccccc2)NC1=O	Candida albicans	fungal growth	–	–	16 µg/mL
C=CCOC(=O)C12CSC(c3ccccc3)N1C(=O)C(=C(O)NC1CCCCC1)C2=O (stereo not drawn)	Streptomyces	bacterial growth, broth dilution	Mueller-Hinton broth	24 h, 35 °C	15.6 µg/mL
CC1(C)C(NC(=O)C(=NOC2(C(=O)O)CC2)c2csc(N)n2)C(=O)N1OS(=O)(=O)O (stereo not drawn)	Citrobacter freundii	agar dilution	ATCC 43864, susceptible	–	0.125 µg/mL
CN[C@H](CC(C)C)C(=O)N[C@H]1C(=O)N[C@@H](CC(N)=O)C(=O)N[C@H]2C(=O)N[C@H]3C(=O)N[C@H](C(=O)N[C@H](C(=O)O)c4cc(O)cc(O)c4-c4cc3ccc4O)[C@H](O)c3ccc(c(Cl)c3)Oc3cc2cc(c3O[C@@H]2O[C@H](CO)[C@@H](O)[C@H](O)[C@H]2O[C@H]2C[C@](C)(N)[C@H](O)[C@H](C)O2)Oc2ccc(cc2Cl)[C@H]1O	Salmonella enterica serovar Typhimurium	–	7731, Mueller-Hinton broth	18 to 20 h, 37 °C	32 µM
C=CCO/N=C(\C(=O)N[C@@H]1C(=O)N(OS(=O)(=O)O)C1(C)C)c1nsc(N)n1	Citrobacter freundii	agar dilution	ATCC 43864, susceptible	–	0.5 µg/mL
N=C(N)NCCC[C@@H]1NC(=O)[C@@H](CCCNC(=N)N)NC(=O)[C@H](CCCNC(=N)N)NC(=O)[C@@H](C(c2ccccc2)c2ccccc2)NC(=O)[C@@H](C(c2ccccc2)c2ccccc2)NC(=O)[C@@H](C(c2ccccc2)c2ccccc2)NC(=O)[C@@H](CCCNC(=N)N)NC1=O	Candida albicans	–	SC5314	–	32 µg/mL
